# Measurements gathered from unrelated publications.
# Every numbered part comes from another study and shows a few of its results, in no order.

# Study 1
# Target: Histone acetyltransferase KAT6A, winged helix 2, GST fusion (KAT6A, Homo sapiens, UniProt Q92794, residues 85-181)
# Method: protein binding microarray
# Molecule type: double-stranded DNA, one strand shown
# Matrix: in vitro
# Concentration: not given
# Notes: 8-mer, flanks averaged, mean of 2 arrays, mostly near background
# Reference: not given
# Direction: higher = stronger binding
# Target sequence (chain): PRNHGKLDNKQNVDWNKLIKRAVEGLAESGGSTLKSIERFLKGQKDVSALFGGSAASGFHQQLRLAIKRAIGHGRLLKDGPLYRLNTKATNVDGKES
Sequence,E-score
ACCTACTG,-0.125
AAGCGTTG,-0.024
AACCGTGA,-0.165
ATTAGCCA,0.0232
ACCGGTGA,-0.124

# Study 2
# Target: Sal-like protein 4, full length isoform B (SALL4, Homo sapiens, UniProt Q9UJQ4-2, residues 1-616)
# Method: universal PBM
# Molecule type: double-stranded DNA, one strand shown
# Matrix: in vitro
# Concentration: not given
# Notes: 8-mer, flanks averaged, mean of replicates
# Direction: higher = stronger binding
Sequence,E-score
CCTCGTTC,-0.232
CGCCAATA,0.166
ATTGCAAA,0.276
AGTGAGTC,-0.161
TAGCCCAA,0.03

# Study 3
# Target: Interferon regulatory factor 3, full length, phosphomimetic (IRF3, Homo sapiens, UniProt Q14653, residues 1-427, S386D/S396D/S398D/S402D/T404D/S405D)
# Chain of UniProt Q14653 (whole entry, unmodified, looked up): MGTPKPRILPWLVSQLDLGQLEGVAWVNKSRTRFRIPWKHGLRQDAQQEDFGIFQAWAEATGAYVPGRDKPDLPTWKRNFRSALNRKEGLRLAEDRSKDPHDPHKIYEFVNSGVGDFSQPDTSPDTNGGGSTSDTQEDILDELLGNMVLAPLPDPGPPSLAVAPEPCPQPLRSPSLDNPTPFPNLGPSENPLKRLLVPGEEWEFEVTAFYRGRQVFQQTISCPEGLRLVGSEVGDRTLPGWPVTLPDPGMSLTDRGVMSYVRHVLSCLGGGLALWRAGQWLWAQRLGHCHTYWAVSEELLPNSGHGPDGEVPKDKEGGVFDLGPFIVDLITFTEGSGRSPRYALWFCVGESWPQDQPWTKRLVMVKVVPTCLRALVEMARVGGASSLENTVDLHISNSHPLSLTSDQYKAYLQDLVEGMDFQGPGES
# Method: protein-binding microarray
# Molecule type: double-stranded DNA, one strand shown
# Matrix: in vitro
# Concentration: 2540 nM top
# Notes: 60-bp whole probe
# With: salmon DNA 0.4 mg/ml
# Reference: random background probes
# Direction: higher = stronger binding
# Shared flanks, not repeated: GCCTAGCAC … GTGCTAGGTCTTGATTCGCTTGACGCTGCTG
Sequence,fitted relative affinity [z-score]
GAGGGACTGCTTTTCCTGAC,-0.394
GGCGATATCAGACTGGAGAC,-0.0532
TTAGGCTTCGGTATCGGTTA,1.91
GACGTTTTCCTTTCCCTGAC,6.64
TTTGCTTTACTGATGGCCCT,0.128
TCAAATTTCCATTTTCTACT,4.83

# Other studies, line by line
Substance,target,assay,test system,setting,how to read,quantity,value
"PhoQ, residues 284 288 289 292 302 303 GANMMA","PhoP, residues 12 14 15 18 19 LHTVM (Escherichia coli, UniProt P23836)","Sort-seq, measured: YFP reporter",E. coli,"PhoQ-PhoP variant library, with: 10 µM Mg2+","reference: high Mg2+ state, higher = stronger signaling",fold induction,15.3

# Excerpt of the above (study 1):
Sequence,E-score
AACCGTGA,-0.165
